Results gathered from unrelated publications.
Protocols differ between the studies behind these lines. ± marks the error that the study gave.
Target: Alpha-glucosidase MAL12 (MAL12, Saccharomyces cerevisiae S288c, UniProt P53341)
Chain of UniProt P53341 (whole entry, looked up): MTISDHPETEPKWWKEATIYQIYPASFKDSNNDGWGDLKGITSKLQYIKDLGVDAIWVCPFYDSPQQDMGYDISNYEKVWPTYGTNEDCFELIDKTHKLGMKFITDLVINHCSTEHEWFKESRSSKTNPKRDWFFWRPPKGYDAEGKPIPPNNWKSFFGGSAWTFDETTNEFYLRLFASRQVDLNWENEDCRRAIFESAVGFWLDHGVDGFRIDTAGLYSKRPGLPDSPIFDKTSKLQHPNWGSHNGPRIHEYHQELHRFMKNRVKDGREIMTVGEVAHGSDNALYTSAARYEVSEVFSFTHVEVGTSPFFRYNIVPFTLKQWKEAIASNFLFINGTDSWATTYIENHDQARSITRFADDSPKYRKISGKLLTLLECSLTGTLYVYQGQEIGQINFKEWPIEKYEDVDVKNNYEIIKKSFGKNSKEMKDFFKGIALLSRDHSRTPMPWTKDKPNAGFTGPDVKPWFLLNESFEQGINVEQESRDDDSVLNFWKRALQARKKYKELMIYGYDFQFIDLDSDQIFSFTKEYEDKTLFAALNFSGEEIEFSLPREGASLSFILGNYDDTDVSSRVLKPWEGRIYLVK

| SMILES | assay | setting | IC50 [µM] |
| --- | --- | --- | --- |
| OC[C@H]1O[C@@H](Oc2cc3c(O)cc(O)cc3[o+]c2-c2cc(O)c(O)c(O)c2)[C@H](O)[C@@H](O)[C@H]1O | – | – | 369 ± 13.8 |
| CCCCCCSc1nc2ccccc2n1CC(=O)NN1C(=O)CSC1c1ccc(N(CC)CC)cc1 (stereo not shown) | enzyme activity, inhibitor, absorbance | – | 190 |
| O=C1O[C@H]([C@@H](O)c2ccc(O)cc2)c2cccc(O)c21 | enzyme activity, inhibitor, absorbance | – | > 100 |
| O=C1C(=O)N(CCOc2ccc(F)cc2)c2ccc(Cl)cc21 | enzyme activity, inhibitor | – | 25.7 |
| O=C(O)c1c(CC(O)c2ccc(O)cc2)cccc1OC1OC(CO)C(O)C(O)C1O (stereo not shown) | enzyme activity, inhibitor, absorbance | – | > 100 |
| CN(C)c1ccc(C(=N/N=C/c2cccc(Cl)c2)c2ccc(N(C)C)cc2)cc1 | enzyme activity, inhibitor | pH 6.8, 37 °C, with: p-nitrophenyl alpha-D-glucopyranoside | 0.72 ± 1.44 |
| O=C1C(=O)N(CCOc2ccc(F)cc2)c2ccc(Br)cc21 | enzyme activity, inhibitor | – | 22.2 |
| O=c1c(-c2ccc(O)cc2)coc2c(Cn3cccn3)c(O)ccc12 | enzyme activity, inhibitor | pH 6.8 | 16.2 ± 3.4 |
| Cc1cccc(/C=C/C(=O)c2cnn(-c3ccccc3)c2C)c1 | inhibitor | – | 394 |
| CN(C)c1ccc(C(=N/N=C/c2ccc(Cl)cc2Cl)c2ccc(N(C)C)cc2)cc1 | enzyme activity, inhibitor | pH 6.8, 37 °C, with: p-nitrophenyl alpha-D-glucopyranoside | 0.77 ± 0.64 |
| CC1=CC(=O)CC(C)(C)C1(O)C=CC(C)OC1OC(CO)C(O)C(O)C1O (stereo not shown) | enzyme activity, inhibitor, absorbance | – | > 100 |
| COc1ccc2c(c1OC)C(C(Cl)(Cl)Cl)N1CCc3cc4c(cc3C1=C2)OCO4 (stereo not shown) | enzyme activity, inhibitor | – | 327 |
| C=CC1C(OC2OC(CO)C(O)C(O)C2O)OC=C(C(=O)OC)C1CC(OC)OCC1OC(OC2OC=C(C(=O)O)C3CCC(C)C23)C(O)C(O)C1O (stereo not shown) | enzyme activity, inhibitor, absorbance | – | > 100 |
| O=C1C(=O)N(CCOc2ccc(Cl)cc2)c2ccc(Br)cc21 | enzyme activity, inhibitor | – | 5.32 |
| CN(C)c1ccc(/C=N/N=C(c2ccc(N(C)C)cc2)c2ccc(N(C)C)cc2)cc1 | enzyme activity, inhibitor | pH 6.8, 37 °C, with: p-nitrophenyl alpha-D-glucopyranoside | 0.51 ± 1.84 |
| Cc1ccc2nc(C)n(/N=C/c3ccc(C(=O)O)cc3)c(=O)c2c1 | enzyme activity, inhibitor | mean of two determinations, with: 4-nitrophenyl alpha-D-glucopyranoside | 93.4 ± 4.39 |

Repeated from above:
| SMILES | assay | setting | IC50 [µM] |
| --- | --- | --- | --- |
| CCCCCCSc1nc2ccccc2n1CC(=O)NN1C(=O)CSC1c1ccc(N(CC)CC)cc1 (stereo not shown) | enzyme activity, inhibitor, absorbance | – | 190 |
| O=C1O[C@H]([C@@H](O)c2ccc(O)cc2)c2cccc(O)c21 | enzyme activity, inhibitor, absorbance | – | > 100 |
